Literature values as cited in several papers.
Compare with care: the assays were run in different laboratories. ± marks the error that the study gave.
Cell line: MCF7

For Cc1ccc(-n2cc(CN3CCN(C(=O)c4nc5ccccc5n4C)CC3)nn2)cc1, the IC50 was 3.03 µM (cell growth).
With Oc1cccc(-c2cccc(O)n2)n1.[Cl-].[Cl-].[Ru+2].c1cnc2c(c1)ccc1cccnc12.c1cnc2c(c1)ccc1cccnc12 the IC50 was 180 µM (cell viability; together with: blue light 450 nm, 1 h).
C=C(C)[C@H]1CC[C@@]2(C)CC[C@]3(C)C[C@H]4[C@@H](C)C[C@@]5(O)OC(=O)/C(=C/C[C@H]3[C@H]12)[C@@H]45 gave an IC50 of 14.5 µM.
The IC50 of CC1=CC(C)=[N+]2C1=C(CO)c1c(C)cc(C)n1[B-]2(C)C is reported as 0.15 ± 0.02 µM (cell viability; white lamp irradiation).
With COc1ccc(/C=C/C(=O)OCc2cn(-c3ccccc3)nc2-c2ccc(F)cc2)cc1 the IC50 was 3.87 µM (cell growth).
For NS(=O)(=O)c1ccc(CC/N=C\c2ccnc3ccccc23)cc1, the IC50 was 8.42 µM (cell growth).
With COc1ccc(-c2ccc(NC(=O)Nc3ccc(Cl)c(C(F)(F)F)c3)c(C)n2)cc1 the IC50 was 0.11 µM (72 h).
Oc1cccc(-c2cccc(O)n2)n1.[Cl-].[Cl-].[Ru+2].c1cnc2c(c1)c1c(c3cccnc32)OCCO1.c1cnc2c(c1)c1c(c3cccnc32)OCCO1 gave an IC50 of 4.1 µM (cell viability; together with: blue light 450 nm, 1 h).
With CC(=NN=C1SCC(=O)N1Cc1cn(C2OCC(O)C(O)C2O)nn1)c1cccnc1 (centres unmarked) the IC50 was 0.15 µM (cell proliferation).
COc1ccc(NC(=O)Nc2ccc(-c3ccc(OC)c(OC)c3)nc2C)cc1 gave an IC50 of 0.8 µM (72 h).
COc1ccc2nc(Cl)c(C3CC(c4ccc(C)cc4)=NN3c3nc(-c4ccc(Cl)cc4)cs3)cc2c1 (centres unmarked) gave an IC50 of 0.227 µM (cell growth).
CCCCn1cc(C(=O)O)c(=O)c2cc(F)c(Nc3cccc(Cl)c3)c(N)c21 has an IC50 of under 50 µM.
For N#Cc1c(NC(=O)CN2CCSCC2)c(C(=O)c2ccccc2)n2c1CCC2, the IC50 was 8.6 µM.
Cn1c(/C=C2\SC(=O)N(CCc3noc(-c4cc(C#N)cc(C#N)c4)n3)C2=O)nc2ccccc21 has an IC50 of 1.32 ± 0.05 µM (cell growth).
CCn1c(SCC(=O)Nc2cccc(C(=O)/C=C/c3ccc(OC)cc3)c2)nc2ccccc2c1=O gave an IC50 of 3.6 ± 0.6 µM (cytotoxicity).
CC(=O)O[C@H]1CC[C@@]2(C)C(CC[C@]3(C)[C@@H]2CC=C2[C@@H]4[C@@H](C)[C@H](C)CC[C@]4(C(=O)N4CCN(C(=O)c5cccc(C(=C6C=CC(=[N+](C)C)C=C6)c6ccc(N(C)C)cc6)c5)CC4)CC[C@]23C)C1(C)C (some centres unmarked) has an IC50 of 1 µM.
The IC50 of C/C(=N\NC(=O)c1ccc([N+](=O)[O-])cc1)c1ccc(NC(=O)c2cccnc2)cc1 is reported as 2.1 µM.

A few entries again:
CC(=O)O[C@H]1CC[C@@]2(C)C(CC[C@]3(C)[C@@H]2CC=C2[C@@H]4[C@@H](C)[C@H](C)CC[C@]4(C(=O)N4CCN(C(=O)c5cccc(C(=C6C=CC(=[N+](C)C)C=C6)c6ccc(N(C)C)cc6)c5)CC4)CC[C@]23C)C1(C)C (some centres unmarked) has an IC50 of 1 µM.
C=C(C)[C@H]1CC[C@@]2(C)CC[C@]3(C)C[C@H]4[C@@H](C)C[C@@]5(O)OC(=O)/C(=C/C[C@H]3[C@H]12)[C@@H]45 gave an IC50 of 14.5 µM.
The IC50 of CC1=CC(C)=[N+]2C1=C(CO)c1c(C)cc(C)n1[B-]2(C)C is reported as 0.15 ± 0.02 µM (cell viability; white lamp irradiation).
